Experimental data gathered from unrelated publications.
Every numbered part comes from another study and shows a few of its results, in no order.

Study 1
Target: Histone acetyltransferase KAT6A, both winged helices, GST fusion (KAT6A, Homo sapiens, UniProt Q92794, residues 1-181)
Method: protein binding microarray
Form: double-stranded DNA, one strand shown
Medium: in vitro
Concentration: not given
Setting: 8-mer, flanks averaged, mean of 2 arrays, mostly near background
Baseline: not given
Direction: higher = stronger binding
Construct (chain): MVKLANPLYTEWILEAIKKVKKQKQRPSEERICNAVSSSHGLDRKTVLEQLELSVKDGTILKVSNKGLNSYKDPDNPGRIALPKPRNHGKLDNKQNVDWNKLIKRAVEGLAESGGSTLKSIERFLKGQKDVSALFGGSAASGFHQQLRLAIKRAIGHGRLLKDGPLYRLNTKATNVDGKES
| Sequence | E-score |
| --- | --- |
| GGAGAGTA | -0.179 |
| AGAAATCA | -0.155 |
| GCGAGATA | 0.0163 |
| CCGACGAC | 0.0939 |
| GTAGGCAC | -0.0445 |

Study 2
Target: Ras GTPase-activating protein-binding protein 1, C-terminal RGG region (G3BP1, Homo sapiens, UniProt Q13283)
Sequence of UniProt Q13283 (whole entry, looked up): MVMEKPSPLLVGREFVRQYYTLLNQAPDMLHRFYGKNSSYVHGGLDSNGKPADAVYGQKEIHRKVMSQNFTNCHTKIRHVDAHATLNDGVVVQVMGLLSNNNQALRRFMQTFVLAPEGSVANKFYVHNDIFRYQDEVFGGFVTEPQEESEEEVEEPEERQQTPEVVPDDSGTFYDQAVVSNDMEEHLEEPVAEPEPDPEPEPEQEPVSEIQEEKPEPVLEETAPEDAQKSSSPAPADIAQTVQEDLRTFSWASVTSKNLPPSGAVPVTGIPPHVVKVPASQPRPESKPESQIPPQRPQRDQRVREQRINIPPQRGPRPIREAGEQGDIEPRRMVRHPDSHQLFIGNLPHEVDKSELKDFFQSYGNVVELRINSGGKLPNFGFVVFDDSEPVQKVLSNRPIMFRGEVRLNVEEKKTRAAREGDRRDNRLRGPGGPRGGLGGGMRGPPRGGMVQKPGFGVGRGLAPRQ
Method: RNA Bind-n-Seq
Form: RNA
Medium: in vitro
Concentration: 1 µM
Setting: whole 134-nt RNA, ends assumed
Added: 150 mM KCl
Baseline: input library
Direction: higher = stronger binding
| Sequence | log2 enrichment |
| --- | --- |
| GGGAGUUCUACAGUCCGACGAUCUUUCUCCAUUGCAGGAAGUUGGCAGUAUCAUCGGAAAGGUAAGACAAUUUCACUUCAACUUCAAUUACCAUUUAGUAAUUCUGGAUUGAAUGGAAUUCUCGGGUGUCAAGG | -1.71 |
| GGGAGUUCUACAGUCCGACGAUCUGGAGAAGCGCUACCUGGCUGCUCAGCGUGAGGCAACAUCCAUCCAUGACCUCAAUGACAAGCUGGAGAAUGAGCUGGCCAACAAGGAGUUGGAAUUCUCGGGUGUCAAGG | -1.8 |
| GGGAGUUCUACAGUCCGACGAUCUGCUUCAUCGCCUUGUGCUCCUGCCCCUGGGAGCUGUGGAUCCCAGAUCCAGAUGACAGCCCACCUUGCUGGCAGGAUGCGCCAAUCCCCUGGAAUUCUCGGGUGUCAAGG | -1.05 |
| GGGAGUUCUACAGUCCGACGAUCUCAAGUCCUGUGCUACACAUCGUAUGUACCGAAUCGGUUUGGUGGAAAAAAAGGAAAGUAUUAUGUUACGCCGUUCGGAUCUGCACUUCCUGGAAUUCUCGGGUGUCAAGG | -1.23 |

Study 3
Target: RNA binding protein fox-1 homolog 2, RRM domain, GST-SBP tag (RBFOX2, Homo sapiens, UniProt O43251-10, residues 100-194)
Method: RNA Bind-n-Seq
Form: RNA
Medium: in vitro
Concentration: 365 nM
Setting: natural RNA segment, single round, ends assumed
Baseline: no-protein control
Direction: higher = stronger binding
Shared flanks, not repeated: GGGAGUUCUACAGUCCGACGAUC … UGGAAUUCUCGGGUGCCAA
Residues (chain): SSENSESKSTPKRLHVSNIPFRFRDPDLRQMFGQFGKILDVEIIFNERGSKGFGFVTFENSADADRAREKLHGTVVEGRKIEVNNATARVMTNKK
| Sequence | RBNS enrichment (R) |
| --- | --- |
| UUAGAGCACUUUGUUAAUGUUCUUCCAUUCACUCCAACAGCGUCCUCAGAAAGAGACAGAAUAAAAAAAUUGUUCCCCAUGGUACAGCUGGAAAAAUUAAGGGGAAAAGA | 0.453 |
| UAAUGUGUUCCCUUUCCCACCCCUUGCCUGACCCUCAGGGAGUCAGCCUGCUUCCAUCCAUGGGUGGGAAGACUUCAGCACAAAGGAAAGACUAAUUCUUGUCAGGCAUU | 0.334 |
| GGGGCUCUGCCAUGUUACACUAAUUUGAAUAAGCUCUCCCUUUUUCUGUAGAGUUCCCAGCCUCAGUAAUGUUCCAGGCUGCUUCUUGUUCCUUUUCUACCCUUUCUAGU | 1.89 |
| UGACAAGGAUUUGAAAAAGACUGGCGAGGGAACGUGUCUGCUUAGCCGAGACUCCCAUACCUACUAUGCACGCACUGGCCCCCAACGACCAGCCCCCUAGGAACGUGUUA | 2.18 |
| CCAGUAUUUAAGGGACCCUAACCUCCAAAAGAGGUACCCAUUGGCGCUCAACCGAAUUGCUGCUCAGGAGGUCCCCAUUGAGAUCAAGCCAGUAAACCCAUCCCCCCUGA | 0.46 |

Single results of other studies
| Molecule | target | test | system | setting | how to read | measurement | value |
| --- | --- | --- | --- | --- | --- | --- | --- |
| PhoQ, residues 284 288 289 292 302 303 TASMAF | PhoP, residues 12 14 15 18 19 HLGGL (Escherichia coli, UniProt P23836) | Sort-seq, item: YFP reporter | E. coli | PhoQ-PhoP variant library, added: 10 µM Mg2+ | baseline: high Mg2+ state, higher = stronger signaling | fold induction | 19.7 |

Excerpt of the above (study 2):
| Sequence | log2 enrichment |
| --- | --- |
| GGGAGUUCUACAGUCCGACGAUCUUUCUCCAUUGCAGGAAGUUGGCAGUAUCAUCGGAAAGGUAAGACAAUUUCACUUCAACUUCAAUUACCAUUUAGUAAUUCUGGAUUGAAUGGAAUUCUCGGGUGUCAAGG | -1.71 |
